Experimental data from different studies.
Each line is one published result; not all experiments were run side by side.
Voltage-dependent P/Q-type calcium channel subunit alpha-1A: Voltage-dependent P/Q-type calcium channel subunit alpha-1A (Homo sapiens, UniProt O00555)
gag-pol reverse transcriptase: Gag-Pol polyprotein, reverse transcriptase (gag-pol, Human immunodeficiency virus 1, UniProt P03366)
ACTA1 pyrene-labeled: Actin, alpha skeletal muscle, pyrene-labeled (ACTA1, Oryctolagus cuniculus, UniProt P68135)

| SMILES | target | assay | system | conditions | how to read | inhibition |
| --- | --- | --- | --- | --- | --- | --- |
| CC[C@H](C)[C@H](NC(=O)[C@@H](NC(=O)[C@H](N)Cc1ccccc1)C(C)C)C(=O)N[C@@H](C)C(N)=O | APP (Homo sapiens, UniProt P05067) | amyloid-beta aggregation, thioflavin T fluorescence |  | 1.0 µM, 144 h, together with: 2 µM amyloid-beta |  | 64.9% |
| CCN(C)C(=O)Oc1cccc([C@H](C)N(C)C)c1 | Voltage-dependent P/Q-type calcium channel subunit alpha-1A | ion current, antagonist | HEK293 | 30 µM |  | 7% |
| O=C1CSC(c2ccc(Br)cc2)N1c1nc(-c2ccc(S(=O)(=O)N3CCOCC3)cc2)cs1 (centres unmarked) | gag-pol reverse transcriptase |  |  | 4 µM |  | 0% |
| Cn1cccc1-c1cccnc1 | CHRM1 (Homo sapiens, UniProt P11229) | binding |  | 50 µM |  | 1.65% |
| C[C@H](C(=O)N[C@H]1COc2ccccc2[C@@H]1S(C)(=O)=O)c1ccc(F)cc1 | GABBR1 (Homo sapiens, UniProt Q9UBS5) | activity |  | 10 µM, Eurofins selectivity panel |  | 11% |
| COc1cc(Nc2ncc(F)c(Nc3ccc4c(n3)NC(=O)C(C)(C)O4)n2)cc(OC)c1OC | PIK3CD (Homo sapiens, UniProt O00329) | KINOMEscan |  | 10 µM |  | 62% |
| O=c1ccc2ccccc2o1 | NMDA receptor | radioligand binding |  | 10 µM |  | -2.06% |
| O=C1CSC(c2cccc(Cl)c2Cl)N1c1nc(-c2ccc(S(=O)(=O)N3CCCC3)cc2)cs1 (centres unmarked) | gag-pol reverse transcriptase |  |  | 4 µM |  | 10.2% |
| CCN(Cc1ccccc1C(F)(F)F)C(=O)C1CCN(S(=O)(=O)c2ccc3[nH]ncc3c2)CC1 | rat central GABAA receptor | radioligand binding |  | 10 µM, together with: flunitrazepam |  | 1% |
| CN1CCN(c2cc(-c3ccncc3)c(-c3ccc4ccccc4c3)nn2)CC1 | MRGPRX2 (Homo sapiens, UniProt Q96LB1) | antagonist, FLIPR |  | 10 µM |  | 31.9% |
| Cn1cc(-c2cccc(N3CCc4c(sc5c4CC(C)(C)C5)C3=O)c2CO)cc(Nc2ccncn2)c1=O | Protein kinase C beta type, isoform beta-I (PRKCB, Homo sapiens, UniProt P05771) | kinase activity, inhibitor, SelectScreen kinase profiling |  | 1 µM, together with: ATP at apparent Km |  | 4% |
| O=C(Nc1cnccc1Cl)N1CCN(Cc2ccc3c(c2)OC(F)(F)O3)CC1 | PRKD2 (Homo sapiens, UniProt Q9BZL6) | kinase activity, inhibitor |  | 10 µM, human, together with: MAPKAPK substrate |  | -5% |
| CO[C@]1([C@@H]2CSC(=O)N2Cc2ccccc2)C[C@H]2C[C@@H](CC[C@H](C)/C=C\C=C\CC/C(C)=C\C(=O)O2)O1 | ACTA1 pyrene-labeled | actin polymerization, pyrene actin |  | 0.1 µM | reference: vehicle | 33% |
| O=C1CSC(c2ccc(Br)cc2)N1c1cccc(S(=O)(=O)Nc2nccs2)c1 (centres unmarked) | gag-pol reverse transcriptase |  |  | 4 µM |  | 11.9% |
| CN(C(=O)n1cnc(-c2ccc[n+]([O-])c2)c1)C1CCCCC1 | central imidazoline I2 receptor, rat | binding |  | 50 µM, together with: [3H]idazoxan |  | -10% |
| N.N.O=C([O-])C1(C(=O)[O-])CCC1.[Pt+2] | Voltage-dependent P/Q-type calcium channel subunit alpha-1A | antagonist |  | 30 µM |  | 17% |

| SMILES | target | assay | system | conditions | how to read | inhibition |
| --- | --- | --- | --- | --- | --- | --- |
| COc1ccc(N2C(=O)N(c3c(C)cccc3Cl)Cc3cnc(Nc4ccc(C5CCN(C)CC5)cc4OC)nc32)nc1 | MARK4 (Homo sapiens, UniProt Q96L34) | kinase activity |  | 0.5 µM |  | 43% |
| CCN1C(=O)SCC1C1(OC)CC2CC(CCC(C)C=CC=CCCC(C)=CC(=O)O2)O1 (centres unmarked) | ACTA1 pyrene-labeled | actin polymerization, pyrene actin |  | 0.1 µM | reference: vehicle | 0% |
| COc1cc2c(c(OC)c1OC)-c1ccc(OC)c(=O)cc1[C@@H](NC(C)=O)CC2 | Voltage-dependent P/Q-type calcium channel subunit alpha-1A | ion current, antagonist | HEK293 | 3 µM |  | -2% |
| CO[C@]1([C@@H]2CSC(=O)N2C)C[C@H]2C[C@@H](CC[C@H](C)/C=C\C=C\CC/C(C)=C\C(=O)O2)O1 | ACTA1 pyrene-labeled | actin polymerization, pyrene actin |  | 0.1 µM | reference: vehicle | 11% |
| O=C([O-])/C=C\C(=O)[O-].[Na+].[Na+] | blaNDM-1 (Klebsiella pneumoniae, UniProt C7C422) | inhibitor |  | concentration not given |  | no inhibition |
| CO[C@]1([C@@H]2CSC(=O)N2C(=O)c2ccccc2)C[C@H]2C[C@@H](CC[C@H](C)/C=C\C=C\CC/C(C)=C\C(=O)O2)O1 | ACTA1 pyrene-labeled | actin polymerization, pyrene actin |  | 0.1 µM | reference: vehicle | 17% |
| C#Cc1n[nH]c2c(-c3cn(C(C)c4ccccn4)c(=O)[nH]c3=O)cc(F)cc12 (centres unmarked) | Phosphatidylinositol 4,5-bisphosphate 3-kinase catalytic subunit alpha isoform, with p85 alpha (PIK3CA, Homo sapiens, UniProt P42336) | kinase activity, inhibitor |  | 1 µM |  | -8.8% |
| O=C(Nc1cccnn1)N1CCC(=Cc2cccc(Oc3ccc(C(F)(F)F)cn3)c2)CC1 | central imidazoline I2 receptor, rat | binding |  | 10 µM, together with: [3H]idazoxan |  | 4% |
| O=C(O[C@@H]1Cc2c(O)cc(O)cc2O[C@@H]1c1cc(O)c(=O)c2c(O)c(O)cc([C@H]3Oc4cc(O)cc(O)c4C[C@H]3OC(=O)c3cc(O)c(O)c(O)c3)c2c1)c1cc(O)c(O)c(O)c1 | PDIA3 (Homo sapiens, UniProt P30101) | di-eosin-GSSG reductase activity |  | 20 µM, 15 min |  | inhibited |
| Cc1ncc(C)n2nc(/C=C/c3nc(N4CCCC4)cc(N4CCOCC4)n3)nc12 | L-type calcium channel verapamil site | radioligand binding |  | 10 µM |  | 10% |
| O=C1CSC(c2ccc(Br)cc2)N1c1nc(-c2ccc(S(=O)(=O)N3CCCC3)cc2)cs1 (centres unmarked) | gag-pol reverse transcriptase |  |  | 4 µM |  | 9.12% |
| CN(CCN1CCC(OC(=O)Nc2ccccc2-c2ccccc2)CC1)C(=O)c1ccc(CN2CCC(C(N)=O)CC2)cc1 | human androgen receptor | radioligand binding |  | 1 µM, together with: [3H]mibolerone 1.0 nM |  | 3% |
| O=C1CSC(c2cccc(Cl)c2Cl)N1c1nc(-c2ccc(S(=O)(=O)N3CCOCC3)cc2)cs1 (centres unmarked) | gag-pol reverse transcriptase |  |  | 4 µM |  | 11.6% |
| CO[C@]1([C@@H]2CSC(=O)N2CCCO)C[C@H]2C[C@@H](CC[C@H](C)/C=C\C=C\CC/C(C)=C\C(=O)O2)O1 | ACTA1 pyrene-labeled | actin polymerization, pyrene actin |  | 1 µM | reference: vehicle | 21% |
| O=C1CSC(c2cccc(Cl)c2)N1c1nc(-c2ccc(S(=O)(=O)N3CCOCC3)cc2)cs1 (centres unmarked) | gag-pol reverse transcriptase |  |  | 4 µM |  | 72.3% |
| C/C1=C/C(=O)O[C@@H]2C[C@@H](CC[C@H](C)/C=C\C=C\CC1)O[C@@](O)([C@@H]1CSC(=O)N1Cc1ccccc1)C2 | ACTA1 pyrene-labeled | actin polymerization, pyrene actin |  | 1 µM | reference: vehicle | 64% |

Some of these lines once more:
| SMILES | target | assay | system | conditions | how to read | inhibition |
| --- | --- | --- | --- | --- | --- | --- |
| CN(C(=O)n1cnc(-c2ccc[n+]([O-])c2)c1)C1CCCCC1 | central imidazoline I2 receptor, rat | binding |  | 50 µM, together with: [3H]idazoxan |  | -10% |
| N.N.O=C([O-])C1(C(=O)[O-])CCC1.[Pt+2] | Voltage-dependent P/Q-type calcium channel subunit alpha-1A | antagonist |  | 30 µM |  | 17% |
| COc1ccc(N2C(=O)N(c3c(C)cccc3Cl)Cc3cnc(Nc4ccc(C5CCN(C)CC5)cc4OC)nc32)nc1 | MARK4 (Homo sapiens, UniProt Q96L34) | kinase activity |  | 0.5 µM |  | 43% |
| CCN1C(=O)SCC1C1(OC)CC2CC(CCC(C)C=CC=CCCC(C)=CC(=O)O2)O1 (centres unmarked) | ACTA1 pyrene-labeled | actin polymerization, pyrene actin |  | 0.1 µM | reference: vehicle | 0% |
